Assay results from different studies.
Each line is one published result; not all experiments were run side by side. ± gives the spread as reported.

For `O=C([O-])CN1CCN(CC(=O)[O-])CCN(CC(=O)NCCc2ccc3c(c2)C2C=CCC2C(c2cc4c(cc2Br)OCO4)N3)CCN(CC(=O)[O-])CC1.[111In+3]` (stereo not drawn), the tissue uptake was 20.1 ± 3.19 %ID/g (mice with Hec50 tumour xenograft, large intestine; 2 h, added: G-1 5 µg blocking).
With `CCN(CC)c1ccc2c(-c3ccccc3C(=O)OCCOCCOCC[18F])c3ccc(=[N+](CC)CC)cc-3oc2c1` the tissue uptake was 3.24 ± 0.43 %ID/g (rat, kidney; 60 min).
`NS(=O)(=O)Nc1ncnc(OCCOc2ncc(Br)cn2)c1-c1ccc(Br)cc1` has a Km of 2.4 ± 0.7 µM (Michaelis-Menten plot, item: compound formation; male Sprague-Dawley rat, liver microsomes; 1500 mg/kg daily, 4 weeks).
`NC12CNCCNCC(NCc3ccc(CNC(=O)CCCC(=O)NCc4ccc(-c5nncnn5)cc4)cc3)(CNCCNC1)CNCCNC2.[64Cu+2]` has a tissue uptake of 1.33 ± 0.53 %ID/g (athymic nude mice SW1222 xenograft, liver; 12 h post injection, 24 h accumulation interval, added: huA33-TCO pretargeting).
`Cc1cc(-c2ccc(NC(=O)[C@H](CCCCNC(=O)CCOCCOCCC(=O)N[C@H](Cc3ccccc3)C(=O)N[C@H]3CSSC[C@@H](C(=O)N[C@H](C(=O)O)[C@@H](C)O)NC(=O)[C@H]([C@@H](C)O)NC(=O)[C@H](CCCCN)NC(=O)[C@@H](Cc4c[nH]c5ccccc45)NC(=O)[C@H](Cc4ccc(O)cc4)NC3=O)NC(=O)CN3CCN(CC(=O)O)CCN(CC(=O)O)CCN(CC(=O)O)CC3)c(C)c2)ccc1N=Nc1ccc2c(S(=O)(=O)O)cc(S(=O)(=O)O)c(N)c2c1O` [lutetium-177 labelled]: “residence time ratio” 2.3 fold (patients with metastatic NETs, lymph node metastases; relative to: cpd over 177Lu-EB-TATE).
`CN1C(=O)[C@@H](Cc2ccc(O)c(I)c2)NC(=O)CNC(=O)[C@H](Cc2ccc3ccccc3c2)NC(=O)[C@H](CCCNC(=N)N)NC(=O)[C@H]1CCCNC(=O)c1ccc(CNC(=O)CN2CCN(CC(=O)O)CCN(CC(=O)O)CCN(CC(=O)O)CC2)cc1` [lutetium-177 labelled] gave a tissue uptake of 8.25 ± 2.23 %ID/g (item: 177Lu radioactivity; female CB-17 SCID mice, Daudi xenograft, liver; intravenous, 0.16 nmol per mouse, 48 h).
`CCCC[C@H](NC(=O)CNC(=O)CNC(=O)CN1CCN(CC(=O)O)CCN(CC(=O)O)CCN(CC(=O)O)CC1)C(=O)N[C@H]1CC(=O)NCCCC[C@@H](C(N)=O)NC(=O)[C@H](Cc2c[nH]c3ccccc23)NC(=O)[C@H](CCCNC(=N)N)NC(=O)[C@@H](Cc2ccccc2)NC(=O)[C@H](Cc2c[nH]cn2)NC1=O` [gallium-67 labelled] has a tissue uptake of 1.26 ± 0.11 %ID/g (female C57 mice, B16/F1 melanoma, stomach; intravenous, 0.037 MBq, 4 h).
For `Cn1c(=O)oc2ccc(-c3ccc(CC(C#N)NC(=O)C4CNCCCO4)c(F)c3)cc21` (stereo not drawn), the Tmax was 1.5 h (human, plasma; 40 mg once daily, day 28, median).
For `[64Cu+2].c1cnc(CNCc2ccc(CN3CCCN4CCNCCCN(CC4)CC3)cc2)nc1`, the tissue uptake was 31.5 ± 31 %ID/g (CXCR4; NOD/SCID mouse, U87 xenografts, small intestine; 90 min, added: AMD3465 25 mg/kg sc).
With `CC(C)[C@H](NC(=O)[C@@H]1CCCN1C(=O)[C@H](CCCNC(=N)N)NC(=O)[C@H](CS)NC(=O)[C@H](Cc1c[nH]c2ccccc12)NC(=O)[C@H](CCCNC(=N)N)NC(=O)[C@@H](Cc1ccccc1)NC(=O)[C@H](Cc1c[nH]cn1)NC(=O)[C@H](CCC(=O)O)NC(=O)[C@H](CS)NC(=O)[C@H](CS)NC(=O)CNC(=O)[C@@H]1CC(=O)N[C@@H](CCCNC(=N)N)C(=O)NCC(=O)N[C@@H](CC(=O)O)C(=O)N[C@H](Cc2ccc(O)cc2)C(=O)N1)C(N)=O` [technetium-99m labelled] the tissue uptake was 0.94 ± 0.31 %ID/g (C57 mouse, female, B16/F1 melanoma, spleen; intravenous, 0.037 MBq, 2 h).
`O=C(O)C1CN(Cc2ccc(-c3noc(-c4ccc(OCC[18F])c(C(F)(F)F)c4)n3)cc2)C1` gave a tissue uptake of 3.35 ± 0.772 %ID/g (male Sprague-Dawley rat, liver; intravenous, 120 min).
For `CCCC[C@H](NC(=O)CNC(=O)CNC(=O)CN1CCN(CC(=O)O)CCN(CC(=O)O)CCN(CC(=O)O)CC1)C(=O)N[C@H]1CC(=O)NCCCC[C@@H](C(N)=O)NC(=O)[C@H](Cc2c[nH]c3ccccc23)NC(=O)[C@H](CCCNC(=N)N)NC(=O)[C@@H](Cc2ccccc2)NC(=O)[C@H](Cc2c[nH]cn2)NC1=O` [copper-64 labelled], the tissue uptake was 11.6 ± 1.77 %ID/g (female C57 mouse, B16/F1 melanoma, liver; intravenous, 0.037 MBq, 0.5 h).
`CCCC[C@@H]1NC(=O)[C@@H](NC(=O)[C@H](CCC(=O)O)NC(=O)CNC(=O)CN2CCN(CC(=O)O)CCN(CC(=O)O)CCN(CC(=O)O)CC2)CCCCNC(=O)C[C@@H](C(N)=O)NC(=O)[C@H](C(C)C)NC(=O)[C@@H]2CCCN2C(=O)[C@H](CCCNC(=N)N)NC(=O)CNC(=O)[C@H](Cc2c[nH]c3ccccc23)NC(=O)[C@H](CCCNC(=N)N)NC(=O)[C@@H](Cc2ccccc2)NC(=O)[C@H](Cc2c[nH]cn2)NC(=O)[C@H](CCC(=O)O)NC1=O` [gallium-67 labelled] gave a tissue uptake of 0.13 ± 0.07 %ID/g (normal C57 mice, blood; intravenous, 0.037 MBq/mouse, 2 h).
For `C[C@H](CN(C)Cc1ccccc1)NC(=O)c1ccc(-c2noc(C(F)(F)[18F])n2)cc1`, the tissue uptake was 1.11 ± 0.26 SUV (PET imaging; female Sprague-Dawley rats, brain; intravenous, 60 min).
For `CC(C)[C@H](NC(=O)[C@@H]1CCCN1C(=O)[C@H](CCCNC(=N)N)NC(=O)[C@H](CS)NC(=O)[C@H](Cc1c[nH]c2ccccc12)NC(=O)[C@H](CCCNC(=N)N)NC(=O)[C@@H](Cc1ccccc1)NC(=O)[C@H](Cc1c[nH]cn1)NC(=O)[C@H](CCC(=O)O)NC(=O)[C@H](CS)NC(=O)[C@H](CS)NC(=O)[C@@H]1CC(=O)N[C@@H](CCCNC(=N)N)C(=O)NCC(=O)N[C@@H](CC(=O)O)C(=O)N[C@H](Cc2ccc(O)cc2)C(=O)N1)C(N)=O` [technetium-99m labelled], the tissue uptake was 16.1 ± 3.09 %ID/g (C57 mouse, female, B16/F1 melanoma, tumor; intravenous, 0.037 MBq, 2 h).
For `[64Cu+2].c1ccc(CNCc2ccc(CN3CCCN4CCNCCCN(CC4)CC3)cc2)nc1`, the tissue uptake was 3.95 ± 0.61 %ID/g (CXCR4; NOD/SCID mouse, U87 and U87-stb-CXCR4 xenografts, spleen; iv, 90 min, ex vivo, added: AMD3465 25 mg/kg sc before tracer).
`Cc1nn(-c2ccc(S(=O)(=O)N[C@H](CO)CC(C)C)cc2)c2nn3nnnc3nc12` has a necrotic cells of 51 ± 1.4% (PC-3; PI/Hoechst staining; 2 µM, 24 h).
The tissue uptake of `CCCC[C@H](NC(=O)CNC(=O)CNC(=O)CN1CCN(CC(=O)O)CCN(CC(=O)O)CC1)C(=O)N[C@H]1CC(=O)NCCCC[C@@H](C(N)=O)NC(=O)[C@H](Cc2c[nH]c3ccccc23)NC(=O)[C@H](CCCNC(=N)N)NC(=O)[C@@H](Cc2ccccc2)NC(=O)[C@H](Cc2c[nH]cn2)NC1=O` [copper-64 labelled] is reported as 0.76 ± 0.27 %ID/g (female C57 mouse, B16/F1 melanoma, stomach; intravenous, 0.037 MBq, 2 h).

A few entries again:
`CN1C(=O)[C@@H](Cc2ccc(O)c(I)c2)NC(=O)CNC(=O)[C@H](Cc2ccc3ccccc3c2)NC(=O)[C@H](CCCNC(=N)N)NC(=O)[C@H]1CCCNC(=O)c1ccc(CNC(=O)CN2CCN(CC(=O)O)CCN(CC(=O)O)CCN(CC(=O)O)CC2)cc1` [lutetium-177 labelled] gave a tissue uptake of 8.25 ± 2.23 %ID/g (item: 177Lu radioactivity; female CB-17 SCID mice, Daudi xenograft, liver; intravenous, 0.16 nmol per mouse, 48 h).
`CCCC[C@H](NC(=O)CNC(=O)CNC(=O)CN1CCN(CC(=O)O)CCN(CC(=O)O)CCN(CC(=O)O)CC1)C(=O)N[C@H]1CC(=O)NCCCC[C@@H](C(N)=O)NC(=O)[C@H](Cc2c[nH]c3ccccc23)NC(=O)[C@H](CCCNC(=N)N)NC(=O)[C@@H](Cc2ccccc2)NC(=O)[C@H](Cc2c[nH]cn2)NC1=O` [gallium-67 labelled] has a tissue uptake of 1.26 ± 0.11 %ID/g (female C57 mice, B16/F1 melanoma, stomach; intravenous, 0.037 MBq, 4 h).
For `Cn1c(=O)oc2ccc(-c3ccc(CC(C#N)NC(=O)C4CNCCCO4)c(F)c3)cc21` (stereo not drawn), the Tmax was 1.5 h (human, plasma; 40 mg once daily, day 28, median).
